Measurements pooled from the literature.
Lines come from different studies, so protocols differ. “And” joins repeats or separate records; there may be more than shown. ± gives the spread as reported.

For `O=c1cc(-c2ccc(O)c(O)c2)oc2c([C@@H]3O[C@H](CO)[C@@H](O)[C@H](O)[C@H]3O)c(O)cc(O)c12`, “maximum non-toxic concentration” read 180.3 ± 0.92 µM (A549; cell viability, MTS; 3 days, 90% cells viable).
`CCCCC(CC)COC(=O)c1ccccc1C(=O)O` (centres unmarked): “mitochondrial membrane permeability” “decreased” (TK6; 196 µM, 48 h, together with: reduced glutathione 500 µM).
For `CCCN(CCC)S(=O)(=O)c1ccc(C(=O)O)cc1`, “survival rate increase” read 7.8% (rabbit renal proximal tubule cells; 200 µM, 24 h, with DHP-I siRNA or cilastatin 200 µM, together with: imipenem).
Under “minimum cytotoxic concentration”, `COCCN1C(N)=NC(N)=NC12CCN(S(=O)(=O)c1ccccc1)CC2` is recorded as greater than 100 µM (MDCK; microscopy, altered cell morphology).
`c1ccc2c(c1)-c1cccc3c1c-2cc1ccccc13`: “point of departure” less than 30 µM (human iPSC-derived cardiomyocytes; cytotoxicity, calcein AM; 24 h).
Under “concentration increasing cytotoxicity”, `C=C(C[C@H](N)C(=O)O)C(=O)NC1CC1` is recorded as 320 µM (MDA-MB-231; 24 h; relative to: vehicle).
The hemolysis of `CC[C@H](C)[C@@H]1NC(=O)[C@@H]2CSSC[C@H](NC(=O)[C@H](C(C)C)NC(=O)[C@H]([C@@H](C)CC)NC(=O)[C@H](C(C)C)NC(=O)[C@@H](NC(=O)[C@H](CCCCN)NC(=O)[C@@H](N)CCCNC(=N)N)CSSC[C@@H](C(=O)N[C@@H](CCCNC(=N)N)C(=O)O)NC(=O)[C@H](CC(C)C)NC(=O)[C@H]([C@@H](C)CC)NC1=O)C(=O)N[C@@H](CCCNC(=N)N)C(=O)N[C@@H](CCCNC(=N)N)C(=O)N[C@@H](CC(N)=O)C(=O)N[C@@H](CCCNC(=N)N)C(=O)N[C@@H](CCCNC(=N)N)C(=O)N2` is reported as 0.87% (human red blood cells; 128 µg/mL, 3 h, 37 °C; relative to: Triton X-100).
For `CCN(CC)N=O`, “lowest effective concentration” read 312 µM (HepaRG 3D spheroids; DNA damage, measured: % tail DNA; 24 h; relative to: vehicle).
For `Nc1nc(O)c2ncn(COC(CO)CO)c2n1`, “minimum cytotoxic concentration” read greater than 394 µM (HEL fibroblasts; cell morphology, microscopy).
`CC[C@H](C)[C@H](NC(=O)[C@H](CCCNC(=N)N)NC(=O)[C@H](CC(C)C)NC(=O)[C@@H](NC(=O)[C@H](CO)NC(=O)[C@H](CC(C)C)NC(=O)[C@@H](NC(=O)[C@H](CCCCN)NC(=O)[C@H](CO)NC(=O)[C@H](CC(C)C)NC(=O)[C@@H](N)Cc1ccccc1)[C@@H](C)CC)[C@@H](C)O)C(=O)N[C@@H](CC(C)C)C(=O)N[C@@H](Cc1ccccc1)C(N)=O` gave an HC50 of 25 µM (human red blood cells; hemolysis; 1 h, 37 °C).
`C=C(C[C@H](N)C(=O)O)C(=O)Nc1ccc(Cl)cc1`: “concentration increasing cytotoxicity” 32 µM (MDA-MB-231; 24 h; relative to: vehicle).
For `COc1c(O)cc2oc3cc(O)c(CC=C(C)C)c(O)c3c(=O)c2c1CC=C(C)C`, “xanthone metabolite amounts” read “no effect” (MDM; RP-HPLC; concentration not given, together with: LPS 100 ng/mL; relative to: unstimulated cells).
`Tricresyl phosphate`: “point of departure” less than 30 µM (human iPSC-derived cardiomyocytes; mitochondrial membrane potential, JC-10; 30 min).
`COc1ccc2c(c1)[nH]c1c(C)nccc12` has a viability of roughly 100% (Caco-2; MTT; range over 10 to 100 µg/mL, 24 h).
With `CN[C@@](C)(C[18F])C(=O)O` the tissue uptake was 1.1 ± 0.1 %ID/g (SCID mouse A549 xenograft, blood; 60 min, post injection).
Under “minimum cytotoxic concentration”, `O=Cc1cc(Cn2ccc(=O)[nH]c2=O)ccc1O` is recorded as no less than 100 µM (HEL fibroblasts; cell morphology, microscopy).
`C[C@@H]1CCO[C@H]2Cn3cc(C(=O)NCc4ccc(F)cc4F)c(=O)c(O)c3C(=O)N12` has an intracellular accumulation of 81.1 ± 18.5 pmol/mg protein (hCMEC/D3; 5 µM, 1 h, 37 °C, 3-drug cART combination).
`CCCCN(CCCC)N=O` — result for “lowest effective concentration”: 125 µM (HepaRG 3D spheroids; DNA damage, measured: % tail DNA; 24 h; relative to: vehicle).
Under “minimal cytotoxic concentration”, `CC(=O)OC[C@H]1O[C@@H](NC(=O)NC(=O)COc2ccc(-c3ccccc3)cc2)[C@H](OC(C)=O)[C@@H](OC(C)=O)[C@@H]1OC(C)=O` is recorded as greater than 100 µM (HEL fibroblasts; cell morphology; 3 days).
With `O=C(Nc1ccccc1F)c1cc2c(=O)n3ccccc3nc2n1Cc1ccccc1` the IC50 was 48.8 ± 3.72 µM (Vero E6; MTT).
For `O=Cc1cc(Cn2cc(F)c(=O)[nH]c2=O)ccc1O`, “minimum cytotoxic concentration” read 100 µM (HEL fibroblasts; cell morphology, microscopy).
`[CH3][Hg][Cl]`: “point of departure” less than 30 µM (human iPSC-derived cardiomyocytes; mitochondrial membrane potential; 30 min).
For `CN(C)N=O`, the ATP level was 98.8% (HepaRG 3D spheroids; cell viability; concentration not given, 24 h; relative to: vehicle).
For `COc1cccc(N2C(N)=NC(N)=NC23CCNCC3)c1`, “minimum cytotoxic concentration” read greater than 100 µM (MDCK; microscopy, altered cell morphology).
Under “apoptotic cells ratio”, `CC1(C)[C@H](C(=O)O[C@H](C#N)c2cccc(Oc3ccccc3)c2)[C@@H]1C=C(Br)Br` is recorded as 4.3 (Caco-2; Hoechst and PI staining; 25 µM, 48 h; relative to: untreated).
`Cc1cccn2c(=O)c3cc(C(=O)Nc4ccc(N(C)C)cc4)n(C)c3nc12` gave an IC50 of 87.3 ± 6.65 µM (Vero E6; MTT).
For `CC(=O)O[C@@]12CO[C@@H]1C[C@H](O)[C@@]1(C)C(=O)[C@H](OC(=O)C3CC3)C3=C(C)[C@@H](OC(=O)[C@H](O)[C@H](C=C(C)C)NC(=O)OC(C)(C)C)C[C@@](O)([C@@H](OC(=O)c4ccccc4)[C@H]21)C3(C)C`, the IC50 was 0.0097 µM and 0.00972 µM (L1210; cytotoxicity, MTT; 72 h).
For `CCS(=O)(=O)N1CCC2(CC1)N=C(N)N=C(N)N2CCOC`, “minimum cytotoxic concentration” read greater than 100 µM (MDCK; microscopy, altered cell morphology).
The TD50 of `CN(CC(=O)NCCN1CCOCC1)S(=O)(=O)NCc1cccc(Oc2ccccc2)c1` is reported as 320 ± 24 µM (HG23 norovirus replicon cells; 48 h).
Under “minimum cytotoxic concentration”, `Nc1nc2c(ncn2COCCO)c(=O)[nH]1` is recorded as greater than 440 µM (HEL embryonic lung fibroblasts; cell morphology, microscopy).
For `Cc1cc2c(cc1N1C(=O)c3cccc4c(CCCO)ccc(c34)C1=O)n(C)c(=O)n2C`, the nonspecific binding was 50% (MDA-MB-231; trypsin-EDTA digestion vs solvent extraction; concentration not given, 6 h).
For `O=C(Cc1ccccc1Nc1c(Cl)cccc1Cl)Oc1ccc(-c2cc(=S)ss2)cc1`, the IC50 was 38 µM (HepG2 and LS180; EROD activity, inhibitor; 24 h, averaged over cell lines, together with: TCDD 250 pmol).
The internalized peptide of `H-HGLASTLTRWAHYNALIRAFGGG-NH2 (C-amide)` is reported as roughly 30% (U-87 MG; fluorimetry; 1 µM, 2 h, serum-free).
For `GRKKRRQRRRPQSWQDLKDH`, cytotoxicity read “not toxic” (A-375; MTT; peptide; up to 100 µM, 24 h).
`COc1cccc2c1C(=O)c1c(O)c3c(c(O)c1C2=O)C[C@@](O)(C(=O)CO)C[C@@H]3O[C@H]1C[C@H](N)[C@H](O)[C@H](C)O1`: “AUC of intracellular concentration” 463 ng·h/mL (HCT-8/ADR; concentration not given, up to 4 h, 2 h loading then drug-free medium).
`N[C@@]1(C(=O)O)CC[C@@H](C(=O)O)C1` — result for “EC50 and Emax”: “no effect” (rat cerebellar granule cells; PI hydrolysis; 24 h, culture-conditioned medium; relative to: freshly prepared).
With `CSCCC(NS(=O)(=O)NCc1cccc(Oc2ccccc2)c1)C(=O)NCCN1CCOCC1` (racemic) the TD50 was 124 ± 25 µM (HG23 norovirus replicon cells; 48 h).
For `CC(C)(C)C(O)(CCc1ccc(Cl)cc1)Cn1cncn1` (centres unmarked), “point of departure” read less than 30 µM (human iPSC-derived cardiomyocytes; mitochondrial membrane potential, measured: JC-10 granules; 30 min).
`C[C@H](Cn1cnc2c(N)ncnc21)OCP(=O)(O)O` gave an intracellular concentration of 0.64 ± 0.15 ng/mL (hCMEC/D3; 10 µM, 1 h, in antiretroviral combination).
For `Nc1ccn(C[C@@H](CO)OCP(=O)(O)O)c(=O)n1.O.O`, “minimum cytotoxic concentration” read 300 µM (HEL embryonic lung fibroblasts; cell morphology, microscopy).
`CN(CCCC(=O)O)N=O`: “lowest effective concentration” 7500 µM (HepaRG spheroids; micronucleus formation, flow cytometry; 24 h; relative to: vehicle control).
`C=C(C[C@H](N)C(=O)O)C(=O)NCc1ccccc1` — result for “concentration increasing cytotoxicity”: 320 µM (MDA-MB-231; 24 h; relative to: vehicle).
`CCN(N=O)C(C)C` — result for “lowest effective concentration”: 2500 µM (HepaRG 3D spheroids; DNA damage, measured: % tail DNA; 24 h; relative to: vehicle).
`COc1cc2c(c(OC)c1OC)-c1c(cc3c(c1OC)OCO3)CC(C)C(C)C2` (centres unmarked) has an LD50 of 21 µM (HepG2; LDH leakage; RPMI, 10% FBS; 48 h, together with: phenobarbital (CYP450 inducer)).
`CC[C@H](C)[C@H](NC(=O)[C@H](CCCCN)NC(=O)[C@@H](NC(=O)[C@H](CC(N)=O)NC(=O)[C@H](C)NC(=O)[C@H](CCCNC(=N)N)NC(=O)[C@H](CCCNC(=N)N)NC(=O)[C@H](CC(N)=O)NC(=O)[C@H](CCCNC(=N)N)NC(=O)[C@@H](NC(=O)[C@H](CCCNC(=N)N)NC(=O)[C@@H](NC(=O)[C@H](CO)NC(=O)[C@@H](NC(=O)[C@H](CS)NC(=O)[C@H](CCCCN)NC(=O)[C@@H](N)CCCNC(=N)N)[C@@H](C)CC)C(C)C)[C@@H](C)CC)[C@@H](C)CC)C(=O)N[C@@H](CS)C(=O)N[C@@H](CC(N)=O)C(=O)O` gave a hemolysis of 0.08% (human red blood cells; 128 µg/mL, 3 h, 37 °C; relative to: Triton X-100).
`CN(N=O)c1ccccc1` gave an ATP level of 89.9% (HepaRG 3D spheroids; cell viability; concentration not given, 24 h; relative to: vehicle).
`C=C(C)[C@]12C[C@@H](COC(C)=O)[C@@]34O[C@]5(O[C@@H]1[C@@H]3[C@@H]1O[C@]1(CO)[C@@H](O)[C@@]1(O)[C@H]4[C@H]([C@H](C)[C@@H]1OC(=O)c1ccccc1)[C@H](C)CCCCCC[C@H]5O)O2` has an IC50 of 4.3 µM (MT4; cell growth or viability, ATP luminescence).

Excerpt of the above:
`CC[C@H](C)[C@H](NC(=O)[C@H](CCCNC(=N)N)NC(=O)[C@H](CC(C)C)NC(=O)[C@@H](NC(=O)[C@H](CO)NC(=O)[C@H](CC(C)C)NC(=O)[C@@H](NC(=O)[C@H](CCCCN)NC(=O)[C@H](CO)NC(=O)[C@H](CC(C)C)NC(=O)[C@@H](N)Cc1ccccc1)[C@@H](C)CC)[C@@H](C)O)C(=O)N[C@@H](CC(C)C)C(=O)N[C@@H](Cc1ccccc1)C(N)=O` gave an HC50 of 25 µM (human red blood cells; hemolysis; 1 h, 37 °C).
`C=C(C[C@H](N)C(=O)O)C(=O)Nc1ccc(Cl)cc1`: “concentration increasing cytotoxicity” 32 µM (MDA-MB-231; 24 h; relative to: vehicle).
